Experimental data collected from several papers.
Numbered parts are unrelated; each lists some results of a single study.

Block 1
Target: RNA binding protein fox-1 homolog 2, RRM domain, GST-SBP tag (RBFOX2, Homo sapiens, UniProt O43251-10, residues 100-194)
Technique: RNA Bind-n-Seq
Molecule type: RNA
Matrix: in vitro
Concentration: 365 nM
Notes: natural RNA segment, single round, ends assumed
Relative to: no-protein control
Direction: higher = stronger binding
Construct (chain): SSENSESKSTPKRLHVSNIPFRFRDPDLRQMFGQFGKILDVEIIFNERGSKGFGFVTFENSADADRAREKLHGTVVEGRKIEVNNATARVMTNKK
`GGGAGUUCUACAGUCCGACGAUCUUGGUCUUGCGAACCCCUAAAUUCUCUCGCUCACGACUGCACAGACUGUCUUGCGGCUCCUCUAUAGGAAAGAGUACUGAUGCCUGUCCGGCCCCGGUUCCCCUCAGGUCUGGAAUUCUCGGGUGCCAA` — result for “RBNS enrichment (R)”: 0.673.
`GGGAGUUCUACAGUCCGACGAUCAACAGGCAGUUCUUGGAGAAGAAAGAGCAUUUCUUUAAGUACCUGGGGAAUACAGCUCUCAGUGAUCAGCAGGGAGUUUAUUUGAGGACAUCAGUCACCUUUGGGGUUGCUGGAAUUCUCGGGUGCCAA` — result for “RBNS enrichment (R)”: 0.659.
Under “RBNS enrichment (R)”, `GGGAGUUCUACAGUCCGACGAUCUCACUUGGUUUCAGCCAUAGUUCACCUUCCCUGUUCCAGGUUUAUUUAAUUCCAAAGGUGAGAGUUGGAGUGAGAUGUCUUCCAUAUCUAUACCUUUGUGCACAGUUGAAUGGAAUUCUCGGGUGCCAA` is recorded as 0.338.
`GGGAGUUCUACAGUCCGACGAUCAGAGUUUUUGAAAUAAUUUAUGCAAGUAUUUGGUUUCCAUGUUUACAAUUUAUACAGCUUUCCUAGCAUUUUAAAUGGAAAUGUCAAUAAAUGCUAUGAAUUGGUGUCAAUGGAAUUCUCGGGUGCCAA`: “RBNS enrichment (R)” 1.61.
For `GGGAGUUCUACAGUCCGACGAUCGUCAAGGUCACUGAGAGGAAUUUGUUUAGAUGCCCAGUUUAGAGUGAAUAGAUAUCUGCGGGGAACCUGGGGCAUUUUGGGGAACCCUGGGGUCUUUUACAGGUCAUGUUUGGAAUUCUCGGGUGCCAA`, “RBNS enrichment (R)” read 1.3.
`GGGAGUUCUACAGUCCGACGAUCGACUGGUGGCCUGCAAAUAGCAUCCGUUGAUCUGUGUUAACUGCAUAGGGAGGGCUCUGCAUAGCACCUGCUAUAGCGGUGUCAUGUUGGAUCGCUUUUGUGACUGUUCAUGGAAUUCUCGGGUGCCAA`: “RBNS enrichment (R)” 0.322.
Under “RBNS enrichment (R)”, `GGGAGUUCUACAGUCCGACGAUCUAGACUCAAGGGUGUGUGGUAUUUCGCUUUUUAGUACAUUACUUUACUGGAAGCUUAAAAUUUGCUUCUCAGUUGGCCUUUAGAGCAAGAGUGGAAUAGCUGUUUUAUUCUGGAAUUCUCGGGUGCCAA` is recorded as 0.354.
For `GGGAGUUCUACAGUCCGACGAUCUCUCGGAUAUGGGUACUGUAUUUGAAAGCUGUUAGCUUUGUCAACACGCAUUGUCCUUGUCAUUUGGGCCCCGAGCUCUGACCCUCGUGUCUGACGCGGCCACCUCUUUCUGGAAUUCUCGGGUGCCAA`, “RBNS enrichment (R)” read 0.281.
`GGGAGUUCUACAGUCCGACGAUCUGGUUUUCCAGCCUCGACCCACUGCGCUCACCUGGCACUGCCCCACUUUCUUCACCCUGGGUCUGUUUCAAGCCGGCCAGAGAGCCUUUCCAAAGAGGAAUGAGGCCCAGUGGAAUUCUCGGGUGCCAA` — result for “RBNS enrichment (R)”: 0.308.

Block 2
Target: Histone acetyltransferase KAT6A, winged helix 2, GST fusion (KAT6A, Homo sapiens, UniProt Q92794, residues 85-181)
Technique: protein binding microarray
Molecule type: double-stranded DNA, one strand shown
Matrix: in vitro
Concentration: not given
Notes: 8-mer, flanks averaged, mean of 2 arrays, mostly near background
Relative to: not given
Direction: higher = stronger binding
Construct (chain): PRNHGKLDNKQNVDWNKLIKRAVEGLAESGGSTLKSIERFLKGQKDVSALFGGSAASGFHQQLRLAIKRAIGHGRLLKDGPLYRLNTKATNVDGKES
For `AAGCTCGA`, the E-score was 0.0415.
With `GCGAGTTA` the E-score was 0.151.
`AGAACTCT` has an E-score of 0.0268.
`CATTAAAC` has an E-score of -0.102.
With `AGTGCTGG` the E-score was 0.0245.
`GATTTACC` has an E-score of 0.0491.
With `AGGCTGGG` the E-score was 0.0998.
`CATTTCGA` gave an E-score of -0.0825.
`ATAGCTTC` has an E-score of -0.0257.
The E-score of `GGCCATTA` is reported as -0.0252.
`AGTGTCCC` gave an E-score of 0.0346.
For `CAGACCTC`, the E-score was 0.0422.
The E-score of `AATAATTG` is reported as -0.0386.
For `CGGATGTA`, the E-score was -0.0749.
For `AGCCCGAG`, the E-score was 0.121.
The E-score of `TTATCCAA` is reported as 0.0481.
For `ACGTCGCC`, the E-score was -0.0649.
`CGAATCCA` has an E-score of -0.016.
`GACTCGAC` gave an E-score of -0.0901.
The E-score of `ACGTATTC` is reported as -0.128.
`GCACCTGA` has an E-score of -0.00407.
For `GCCACATA`, the E-score was -0.00137.
`GGGTCTGA` has an E-score of -0.063.
`ACTCGACT` has an E-score of -0.144.

Block 3
Target: Phosphate system positive regulatory protein PHO4, full length, GST-tagged (PHO4, Saccharomyces cerevisiae, UniProt P07270, residues 1-312)
Technique: competition protein-binding microarray
Molecule type: double-stranded DNA, one strand shown
Matrix: in vitro
Concentration: 2 µM
Notes: whole 60-bp probe, lowest competitor level
Added: Cbf1 competitor, 0.05 µM
Direction: higher = stronger binding
Target sequence (chain): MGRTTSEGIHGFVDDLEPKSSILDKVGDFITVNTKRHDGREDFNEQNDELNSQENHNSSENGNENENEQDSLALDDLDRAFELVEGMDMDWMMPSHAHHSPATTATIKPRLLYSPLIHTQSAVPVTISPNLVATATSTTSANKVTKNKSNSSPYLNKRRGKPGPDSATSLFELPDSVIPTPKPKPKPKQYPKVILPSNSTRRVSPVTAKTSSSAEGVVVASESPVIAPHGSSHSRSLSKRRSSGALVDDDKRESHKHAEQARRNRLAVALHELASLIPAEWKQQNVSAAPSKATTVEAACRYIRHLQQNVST
The fluorescence intensity of `CCAGATCCGGATCCAAACATGACAATCGAAGATTATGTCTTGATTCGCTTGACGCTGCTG` is reported as 3280 a.u.
The fluorescence intensity of `CTGTCGTCGTAGGTTCTCGTGGTGATGACCTTACTAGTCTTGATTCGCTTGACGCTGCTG` is reported as 7960 a.u.
With `GGTGTTGGAACTACCCACGTGGTGATTCTGGTATTTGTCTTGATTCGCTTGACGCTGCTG` the fluorescence intensity was 19700 a.u.
For `CGGCCCAGATTTTTTCACCTGACTCCGGTCCTGACGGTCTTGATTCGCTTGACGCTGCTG`, the fluorescence intensity was 2670 a.u.
`CTTCTGTAAATTTGTCACAGTACTTGACGCGCCCCGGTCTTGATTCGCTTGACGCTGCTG` has a fluorescence intensity of 3220 a.u.
`CGGGGTTAAGTTTGCTTAGTGGGTGGCTTGCAGCAGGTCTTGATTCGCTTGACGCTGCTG` gave a fluorescence intensity of 4290 a.u.
`ACTGCTGTCTATAACGGCGTGACGGGTTTAGCATAAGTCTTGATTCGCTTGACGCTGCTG` gave a fluorescence intensity of 6180 a.u.
With `CACAGACCTTACTTCCACGTTAGTGTCATCGAAGATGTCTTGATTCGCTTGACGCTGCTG` the fluorescence intensity was 6120 a.u.
With `CGGGGTTAAGTTTTTCACGTGCCTTGCTTGCAGCAGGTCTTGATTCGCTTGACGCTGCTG` the fluorescence intensity was 14500 a.u.
`AGGGCGAGGGTGATACTCGTGGGTATGTTTCAATGCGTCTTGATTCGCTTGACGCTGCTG` has a fluorescence intensity of 10800 a.u.
`AAAGCGGTAATTTGTCACGACACTTCACATATCTATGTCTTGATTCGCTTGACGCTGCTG` gave a fluorescence intensity of 5670 a.u.
`CTAACGAAGGTTTGACGTGTGGGTGACAAGCCAAGTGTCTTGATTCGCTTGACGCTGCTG` has a fluorescence intensity of 5380 a.u.
`AACAAGAAGATCCATCACGTGCTTTGAAAAAAAATAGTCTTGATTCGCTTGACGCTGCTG` gave a fluorescence intensity of 17800 a.u.
`CTGCCTCTTTTCCAGCATGTGGCAACTGTCCCGACGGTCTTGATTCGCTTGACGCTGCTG` gave a fluorescence intensity of 11000 a.u.
With `CTTTCCCGATCTTGCGTGGTGGGTGTAGCACATTTGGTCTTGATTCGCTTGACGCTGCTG` the fluorescence intensity was 6780 a.u.
The fluorescence intensity of `CGGGGTTAAGTTTTCCACGTGTTTTGCTTGCAGCAGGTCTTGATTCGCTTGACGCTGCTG` is reported as 15500 a.u.
`CCCTGCTGCCAGTCCCACGTGCAGACGCACCTGCAGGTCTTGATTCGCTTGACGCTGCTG` gave a fluorescence intensity of 16300 a.u.
With `CGACCCAGTTGTACGAGGCAACAGGCCCGACTTCACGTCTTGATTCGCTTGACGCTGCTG` the fluorescence intensity was 4090 a.u.
With `CGTCCTAGTGATTGGCGGGTGGGTGCCATGAGGAAGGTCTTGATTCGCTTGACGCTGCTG` the fluorescence intensity was 6930 a.u.
For `AAGGATAGCACTTTGATCATGCAATTATTAAGGGACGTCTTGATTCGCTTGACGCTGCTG`, the fluorescence intensity was 5210 a.u.
The fluorescence intensity of `TACGAACAATATCCACACGTGGCCGTTGTAAAGCTTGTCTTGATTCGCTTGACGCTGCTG` is reported as 18200 a.u.
`ATGAAGGTTGGCGACCACGTGGTCGTTGATGCTGCCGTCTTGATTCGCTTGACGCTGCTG` has a fluorescence intensity of 19100 a.u.
`CCACCGTTTGAGAGTGGTGTGACAGGACGCCCAAGAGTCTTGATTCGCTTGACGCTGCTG` gave a fluorescence intensity of 4270 a.u.
The fluorescence intensity of `CTAACGAAGGTTTTTCACGTGTTCTACAAGCCAAGTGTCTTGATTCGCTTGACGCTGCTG` is reported as 14700 a.u.

Block 4
Target: RING finger protein unkempt homolog, zinc fingers 1-6, GST-SBP tag (UNK, Homo sapiens, UniProt Q9C0B0, residues 30-357)
Chain of UniProt Q9C0B0 (30-357, looked up): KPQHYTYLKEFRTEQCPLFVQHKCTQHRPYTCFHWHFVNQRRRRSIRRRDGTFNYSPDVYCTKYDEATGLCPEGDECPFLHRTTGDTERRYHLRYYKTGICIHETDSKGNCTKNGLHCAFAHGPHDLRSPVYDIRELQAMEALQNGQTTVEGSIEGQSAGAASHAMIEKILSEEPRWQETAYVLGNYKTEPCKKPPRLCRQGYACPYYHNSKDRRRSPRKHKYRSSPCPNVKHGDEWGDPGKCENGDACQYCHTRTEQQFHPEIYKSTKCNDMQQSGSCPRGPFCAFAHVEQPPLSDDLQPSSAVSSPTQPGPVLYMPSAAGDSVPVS
Technique: RNA Bind-n-Seq
Molecule type: RNA
Matrix: in vitro
Concentration: not given
Notes: RNA with constant flanks, human and mouse sites, ends assumed
Relative to: input RNA pool
Direction: higher = stronger binding
The bound/input enrichment of `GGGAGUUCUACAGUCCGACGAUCAUUGACUGCAAUAAAAUUUAUGAAAGGGUAGUAGAAAAGCCCUCCACAGACUUGCCUCUAGGCACAACAUUUUGGCUAGGACAGAGAAAUAAUGCGCAUGGAUAUUUUAAGGGUAUAAUGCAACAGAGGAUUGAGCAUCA` is reported as 0.453 ratio.
With `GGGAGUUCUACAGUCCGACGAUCAACUGGUGCAGCGCUGUCAGCAGGCAUACAUGCAGUACAUCCAUCACCGCUUAAUUCACCUGACUCCUGCCGACUACGACGACUUUGUGAAUGCAAUCCGCAGCGCUCGCAGCGCCUUCUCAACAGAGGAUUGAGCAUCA` the bound/input enrichment was 0.123 ratio.
With `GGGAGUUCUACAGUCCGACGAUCAAGAGCUAACAGAAAACAUUUUGAAAGUGCUCAAAGAACAAGCUGCUGAUUCUAUUUUGGUACUAGAAGCAGCCCUAAAAUUAAACAAGGAUCUUUAUGUCCAUACGAUGAGAACUCUAGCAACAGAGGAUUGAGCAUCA` the bound/input enrichment was 0.165 ratio.
`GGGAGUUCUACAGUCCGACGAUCGCAGGGAUCCUGUCAGCCCUGGGUUCUAAGACAUCACUGAUGAUACGGCAUGAUAAGGUACUUAGAAGUUUUGAUUCAAUGAUCAGCACCAACUGCACGGAGGAGCUGGAGAACGCUGGCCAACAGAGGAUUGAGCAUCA` gave a bound/input enrichment of 0.248 ratio.
`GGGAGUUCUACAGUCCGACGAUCGCUGAUUGCAACCUGCUGCCCAAACUGCAUAUUGUCAAGGUGGUGGCCAAAAAAUAUCGCAACUUUGAUAUUCCAAAAGAAAUGACUGGCAUCUGGAGAUACCUAACUAAUGCAUACAGUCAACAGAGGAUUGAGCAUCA` has a bound/input enrichment of 0.213 ratio.
With `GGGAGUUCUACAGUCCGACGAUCACCUAUCGUCGUUAUAGUGACUUCCAUGACUUCCACAUGAGAAUCACUGAACAGUUUGAAAGUCUCUCAAGCAUAUUGAAACUUCCUGGAAAAAAGACUUUUAAUAAUAUGGAUAGAGAUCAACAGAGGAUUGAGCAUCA` the bound/input enrichment was 0.278 ratio.
For `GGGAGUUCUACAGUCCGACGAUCGAACCUAUUGUGUUGAGGCUGCGAUUUUCUCUCUCCCAGUACCUAGAUGGACCAGAACCAUCCAUUGAGGUUUUCCAGCCAUCAAAUAAGGAAGGAUUUGGGCUGGGUCUUCAGUUGAAACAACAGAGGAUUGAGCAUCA`, the bound/input enrichment was 0.22 ratio.
`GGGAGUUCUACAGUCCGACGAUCGUCUCCUACACUUGAGGAUCAAGAGCGUCAUUUACUUGUGAAAGUUAUUGAUAGGAUACUGUACAAACUUGAUGACUUAGUUCGUCCAUAUGUGCAUAAGAUCCUCGUGGUCAUUGAACCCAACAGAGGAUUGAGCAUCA` has a bound/input enrichment of 0.19 ratio.
